Literature values as cited in several papers.
Each numbered part shows a few of the values that one paper quotes. Numbers after ± are the reported error.

Series 1
SMILES: OCCN1CCN(CCC=C2c3ccccc3Sc3ccc(C(F)(F)F)cc32)CC1
Cell line: MCF7
Technique: microarray
Concentration: concentration not given
test | how to read | fold change
measured: MAFF mRNA (probe 36711_at) | reference: vehicle (DMSO) | 1.52
measured: SYNGR3 mRNA | reference: DMSO | 0.97
measured: ISG20 mRNA (probe 33304_at) | reference: vehicle (DMSO) | 1.18

Other studies, line by line
Structure (SMILES) | target or system | test | conditions | measurement | result
Cl.OC1CCCCC1N1CCC(c2ccccc2)CC1 (racemic) | Toxoplasma gondii | parasite growth | concentration not given, drug repurposing screen | activity class | inactive
Nc1nc2c(ncn2[C@@H]2O[C@H](CO)[C@@H](O)[C@H]2O)c(=S)[nH]1 | Caco-2 | – | – | CC50 | 630 ± 420 nM
CNC1CC(c2ccc(Cl)c(Cl)c2)c2ccccc21 (centres unmarked) | Toxoplasma gondii | parasite growth, drug repurposing screen | concentration not given | antiparasitic activity | active
CCOC(=O)[C@@H]1CSCC(=O)N[C@H](CC)C(=O)N(C)[C@@H](C)C(=O)N[C@H](CC(C)C)C(=O)N(C)[C@H](C)C(=O)N(CC(C)C)CC(=O)N[C@H](CC(C)C)C(=O)N(C)[C@H](C)C(=O)N[C@@H](CC(C)C)C(=O)N1C | MDCK | – | – | log permeability (Pe) | -5.9
C=CCN1CC[C@]23c4c5ccc(O)c4O[C@H]2C(=O)CC[C@@]3(O)[C@H]1C5 | Toxoplasma gondii | parasite growth | concentration not given, published screen | activity class | inactive
CCCCCCCCCCCCCCCCCC[S+](CCC)c1ccccc1C(=O)OCC (centres unmarked) | Caco-2 | – | – | CC50 | 890 ± 830 nM
Oc1cc(Cl)ccc1Oc1ccc(Cl)cc1Cl | Toxoplasma gondii | parasite growth | concentration not given | antiparasitic activity | active
CC[C@H]1C(=O)N[C@@H](CC(C)C)C(=O)N2CCC[C@@H]2C(=O)N(C)[C@@H](Cc2ccccc2)C(=O)N[C@@H](CC(C)C)C(=O)N(C)[C@H](C)C(=O)N1C | – | – | pH 7.4 | logD | 1.06

Repeated from above (other studies, line by line):
Structure (SMILES) | target or system | test | conditions | measurement | result
CNC1CC(c2ccc(Cl)c(Cl)c2)c2ccccc21 (centres unmarked) | Toxoplasma gondii | parasite growth, drug repurposing screen | concentration not given | antiparasitic activity | active
